Assay results gathered from unrelated publications.
Protocols differ between the studies behind these lines. Several values in a cell are separate wells, animals, samples, runs or records. ± gives the spread as reported.

CC(C)(C)c1cnc(CSc2cnc(NC(=O)C3CCN(C(=O)CCCCCCCCCCCN4Cc5cc6c(cc5C4)C(=O)N(C4CCC(=O)NC4=O)C6=O)CC3)s2)o1 (stereo not shown) — IC50 (TC-71; cell growth, MTT; 72 h): 0.0799 ± 0.0058 µM
Cc1nc(Nc2ncc(C(=O)Nc3c(C)cccc3Cl)s2)cc(N2CC[C@H](O)C2)n1 — IC50 (Jurkat E6-1; cell proliferation, CellTiter-Glo; 72 h): > 10 µM
C=CC(=O)N1CCC(C(=O)N(C)CC(=O)N2CCN(c3nc(-c4cnc(N)nc4C(F)F)nc(N4CCOCC4)n3)CC2)CC1 — IC50 (SK-OV-3; Akt phosphorylation, inhibitor, in-cell western, item: Akt pSer473): 0.0851 µM
C=CC(=O)NC1CCN(c2ncc3ncnc(Nc4ccc(Oc5ccc6c(c5)ncn6C)c(C)c4)c3n2)CC1 — IC50 (Ba/F3 expressing HER2 L755S; cell growth, inhibitor, CellTiter-Glo): 0.0309 µM
COc1cc(Nc2nccc(-c3cnn4nc(OC)ccc34)n2)cc(C(F)(F)F)c1 — IC50 (MCAS; cell growth, CellTiter-Glo; ovary): 0.44 µM
C=CCn1c(=O)c2cnc(Nc3ccc(N4CCN(C)CC4)cc3)nc2n1-c1ccc2c(n1)[C@@](O)(CC)CC2 — IC50 (NCI-H1048; cell viability, CellTiter-Glo; 72 h): 0.31 µM
C[C@]12CC[C@@H]3c4ccc(O)cc4C[C@@H](CCCCCCCCC[S+]([O-])CCCC(F)(F)C(F)(F)F)[C@H]3[C@@H]1CC[C@@H]2O (stereo partly shown) — IC50 (MCF7/luciferase, wild type; cell proliferation): 0.0008 µM
C=CC(=O)N1CCC([C@@H]2CCNc3c(C(N)=O)c(-c4ccc(Oc5ccccc5)cc4)nn32)CC1 — IC50 (TMD8 RAC2 knockout; calcium flux, FLIPR; 2 h preincubation): 0.0016 µM
C=CC(=O)N1CCC(COCC(=O)N2CCN(c3nc(-c4cnc(N)nc4C(F)F)nc(N4CCOC[C@@H]4C)n3)CC2)CC1 — IC50 (SK-OV-3; Akt phosphorylation, inhibitor, in-cell western, item: Akt pSer473; 1 h): 0.0192 µM
C=CC(=O)N1CCC[C@@H](n2nc(-c3ccc(Oc4ccccc4)cc3)c3c(N)ncnc32)C1 — IC50 (TMD8 RAC2 knockout; calcium flux, FLIPR; 2 h preincubation): 0.00067 µM
CC(C)(C)c1cnc(CSc2cnc(NC(=O)C3CCN(C(=O)CCCCN4Cc5cc6c(cc5C4)C(=O)N(C4CCC(=O)NC4=O)C6=O)CC3)s2)o1 (stereo not shown) — IC50 (TC-71; cell growth, MTT; 72 h): 0.013 ± 0.0023 µM
CCOC(=O)c1nn(-c2ccccc2)c(C#N)c1NC(=O)c1nn(CC)cc1Br — IC50 (human PBMC monocytes; phagocytosis of anti-D RBCs): 17.7 ± 3.4 µM
CC(C)(C)c1cnc(CSc2cnc(NC(=O)C3CCN(C(=O)CCCCCCCCCN4Cc5cc6c(cc5C4)C(=O)N(C4CCC(=O)NC4=O)C6=O)CC3)s2)o1 (stereo not shown) — IC50 (TC-71; cell growth, MTT; 72 h): 0.0717 ± 0.0024 µM
CC1=CC(=O)C(C(C)C)=CC1=O — IC50 (HK-2; cell viability, CCK-8; 24 h): 79 ± 5.62 µM
COc1cc(N2CCC(N3CCN(C)CC3)CC2)ccc1Nc1ncc(Cl)c(Nc2ccccc2P(C)(C)=O)n1 — IC50 (KARPAS-299 (NPM1-ALK); cell viability): 0.00825 µM
C=CC(=O)Nc1cc(Nc2nccc(-c3cn(C)c4ccccc34)n2)c(OC)cc1N(C)CCN(C)C — IC50 (Ba/F3 EGFR 19Del/T790M/C797S; cell growth; 72 h): 1.13 µM
O=C(C[C@@H](C(F)F)n1ccc(F)n1)N1CCC(O)(Cn2cnc3c(cnn3-c3ccc(F)cc3)c2=O)CC1 — IC50 (CHP-212 parental; cell viability, SRB): 0.112 µM and 0.0842 µM and 0.0863 µM
C[C@H]1Oc2cc(cnc2N)-c2c(nn(C)c2C#N)CN(C)C(=O)c2ccc(F)cc21 — IC50 (Ba/F3 EML4-ALK variant 1 E1210K; cell viability): 0.00102 µM
CC#CC(=O)N1CCC[C@H]1c1nc(-c2ccc(C(=O)Nc3ccccn3)cc2)c2c(N)nccn12 — IC50 (TMD8 RAC2 knockout; calcium flux, FLIPR; 2 h preincubation): 0.011 µM
CC(C)(C)c1cnc(CSc2cnc(NC(=O)C3CCN(C(=O)CCCCCCCCCCN4Cc5cc6c(cc5C4)C(=O)N(C4CCC(=O)NC4=O)C6=O)CC3)s2)o1 (stereo not shown) — IC50 (TC-71; cell growth, MTT; 72 h): 0.0718 ± 0.0022 µM
CC(=O)Nc1ccc(O)cc1 — IC50 (THLE-2; cytotoxicity; concentration not given, null adenovirus control, together with: BSO): > 1500 µM
C[C@H]1CN(C2COC2)CCN1c1ccc(Nc2cc(-c3ccnc(N4CCn5c(cc6c5CC(C)(C)C6)C4=O)c3CO)cn(C)c2=O)nc1 — IC50 (TMD8 RAC2 knockout; calcium flux, FLIPR; 1 h preincubation): 0.0051 µM
C[C@@H]1CN(C(=O)c2ccc(NC(=O)c3cc(O[C@H](C)c4c(Cl)ccc(F)c4Cl)c(N)nn3)cc2)C[C@H](C)N1 — IC50 (NB1 (ALK amplification, exon 2-3 deletion); cell viability): 0.00506 µM
COc1cc2c3c(n(CCCNC(C)C)c(=O)c2cc1OC)-c1nc2c(cc1C3=O)OCO2 — IC50 (TC-106 Ewing sarcoma cells; cytotoxicity, MTS; 72 h): 0.202 ± 0.005 µM
COc1ccc(-c2cncc(N[C@@H](C)c3cccc(NC(=O)c4cncc(C)c4)c3)n2)cc1OC — IC50 (NCI-H1703; HTRF, item: ERK phosphorylation; together with: PDGF-BB): 0.07 µM
CCOc1cc2ncc(C#N)c(Nc3ccc(OCc4ccccn4)c(Cl)c3)c2cc1NC(=O)/C=C/CN(C)C — IC50 (Ba/F3 expressing HER2 L755S; cell growth, inhibitor, CellTiter-Glo): 0.0065 µM
C[C@H](Nc1ccc2c(c1)OCCn1cc(N3C(=O)OC[C@H]3C(F)F)nc1-2)C(N)=O — IC50 (SK-OV-3; western blot, item: phospho-PKB/Akt Ser473; 2 h): 0.0098 µM
COc1cc2c3c(n(CCCNCCO)c(=O)c2cc1OC)-c1nc2c(cc1C3=O)OCO2 — IC50 (TC-106 Ewing sarcoma cells; cytotoxicity, MTS; 72 h): 0.202 ± 0.002 µM
CCOC(=O)c1nn(-c2ccccc2)c(C#N)c1N — IC50 (human PBMC monocytes; phagocytosis of anti-D RBCs): 53.3 ± 17.4 µM
CN(C)C(=O)c1cc2cnc(Nc3ccc(C(=O)NCCCCCCOc4cccc5c4C(=O)N(C4CCC(=O)NC4=O)C5=O)cc3)nc2n1C1CCCC1 (stereo not shown) — IC50 (MYCN-amplified neuroblastoma cell line panel; cytotoxicity, Alamar Blue; 72 h): 0.0201 to 0.131 µM
Cc1cc(Nc2ncc(Cl)c(Nc3ccccc3S(=O)(=O)C(C)C)n2)c(OC(C)C)cc1C1CCNCC1 — IC50 (Ba/F3 EML4-ALK variant 1 E1210K; cell viability): 0.108 µM
CCC(=O)N1CCC(COCC(=O)N2CCN(c3nc(-c4cnc(N)nc4C(F)F)nc(N4CCOC[C@@H]4C)n3)CC2)CC1 — IC50 (SK-OV-3; FOXO1 translocation, kinase translocation reporter; 2 h): 0.214 µM
CCOC(=O)c1nn(-c2ccccc2)c(C#N)c1NC(=O)c1nn(CC)cc1C — IC50 (human PBMC monocytes; phagocytosis of anti-D RBCs): 37.3 ± 6.2 µM
C=CC(=O)N1CCC(CN(C)CC(=O)N2CCN(c3nc(-c4cnc(N)nc4C(F)F)nc(N4CCOCC4)n3)CC2)CC1 — IC50 (SK-OV-3; Akt phosphorylation, inhibitor, in-cell western, item: Akt pSer473): 0.038 µM
CCNCCc1ccc(CN(CC)c2cc(OC)ccc2[C@@H]2CCc3cc(O)ccc3C2)cc1 — IC50 (MCF7/luciferase, wild type; cell proliferation): 0.0053 µM
C=CC(=O)N1CCC[C@@H](c2ccc(C(N)=O)c3[nH]ccc23)C1 — IC50 (Ramos; calcium flux, FLIPR; 2 h preincubation): > 1 µM
Cc1nc(NC(=O)N2CCC[C@H]2C(N)=O)sc1-c1ccnc(C(C)(C)C(F)(F)F)c1 — IC50 (Detroit 562; CellTiter-Glo; 120 h): 10.5 µM
CCCCN1C[C@H](O)[C@@H](O)[C@@H](O)[C@H]1CO — IC50 (sample C patient fibroblasts; Gb3 level lowering, LC-MS/MS, item: Gb3 d18:1/20:0; 216 h): 6.7 µM
CC1(C)COc2ccc(F)cc2CN2c3nc4c(cnn4cc3OC[C@H]2C(F)F)C(=O)N1 — IC50 (KARPAS-299 (NPM1-ALK); cell viability): 0.00985 µM
CCOC(=O)c1nn(-c2ccccc2)c(C#N)c1NC(=O)c1ccn(CC)n1 — IC50 (human PBMC monocytes; phagocytosis of anti-D RBCs): 48.1 ± 6.1 µM

Excerpt of the above:
Cc1cc(Nc2ncc(Cl)c(Nc3ccccc3S(=O)(=O)C(C)C)n2)c(OC(C)C)cc1C1CCNCC1 — IC50 (Ba/F3 EML4-ALK variant 1 E1210K; cell viability): 0.108 µM
CCOC(=O)c1nn(-c2ccccc2)c(C#N)c1NC(=O)c1nn(CC)cc1C — IC50 (human PBMC monocytes; phagocytosis of anti-D RBCs): 37.3 ± 6.2 µM
CCNCCc1ccc(CN(CC)c2cc(OC)ccc2[C@@H]2CCc3cc(O)ccc3C2)cc1 — IC50 (MCF7/luciferase, wild type; cell proliferation): 0.0053 µM
